Measured values pooled from the literature.
Each numbered part is a random draw from the data of one study; scales do not carry over between parts.
UniProt P52564, sequence (whole entry, looked up): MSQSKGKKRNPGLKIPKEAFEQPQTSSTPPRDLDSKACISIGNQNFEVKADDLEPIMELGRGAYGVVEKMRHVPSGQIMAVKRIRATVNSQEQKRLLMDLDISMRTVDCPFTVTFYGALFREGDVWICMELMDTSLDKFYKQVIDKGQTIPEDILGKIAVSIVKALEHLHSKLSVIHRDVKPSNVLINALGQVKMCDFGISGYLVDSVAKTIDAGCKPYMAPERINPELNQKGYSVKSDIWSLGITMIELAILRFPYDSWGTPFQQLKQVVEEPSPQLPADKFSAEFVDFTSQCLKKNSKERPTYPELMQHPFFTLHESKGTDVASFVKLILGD
UniProt P42684, sequence (whole entry, looked up): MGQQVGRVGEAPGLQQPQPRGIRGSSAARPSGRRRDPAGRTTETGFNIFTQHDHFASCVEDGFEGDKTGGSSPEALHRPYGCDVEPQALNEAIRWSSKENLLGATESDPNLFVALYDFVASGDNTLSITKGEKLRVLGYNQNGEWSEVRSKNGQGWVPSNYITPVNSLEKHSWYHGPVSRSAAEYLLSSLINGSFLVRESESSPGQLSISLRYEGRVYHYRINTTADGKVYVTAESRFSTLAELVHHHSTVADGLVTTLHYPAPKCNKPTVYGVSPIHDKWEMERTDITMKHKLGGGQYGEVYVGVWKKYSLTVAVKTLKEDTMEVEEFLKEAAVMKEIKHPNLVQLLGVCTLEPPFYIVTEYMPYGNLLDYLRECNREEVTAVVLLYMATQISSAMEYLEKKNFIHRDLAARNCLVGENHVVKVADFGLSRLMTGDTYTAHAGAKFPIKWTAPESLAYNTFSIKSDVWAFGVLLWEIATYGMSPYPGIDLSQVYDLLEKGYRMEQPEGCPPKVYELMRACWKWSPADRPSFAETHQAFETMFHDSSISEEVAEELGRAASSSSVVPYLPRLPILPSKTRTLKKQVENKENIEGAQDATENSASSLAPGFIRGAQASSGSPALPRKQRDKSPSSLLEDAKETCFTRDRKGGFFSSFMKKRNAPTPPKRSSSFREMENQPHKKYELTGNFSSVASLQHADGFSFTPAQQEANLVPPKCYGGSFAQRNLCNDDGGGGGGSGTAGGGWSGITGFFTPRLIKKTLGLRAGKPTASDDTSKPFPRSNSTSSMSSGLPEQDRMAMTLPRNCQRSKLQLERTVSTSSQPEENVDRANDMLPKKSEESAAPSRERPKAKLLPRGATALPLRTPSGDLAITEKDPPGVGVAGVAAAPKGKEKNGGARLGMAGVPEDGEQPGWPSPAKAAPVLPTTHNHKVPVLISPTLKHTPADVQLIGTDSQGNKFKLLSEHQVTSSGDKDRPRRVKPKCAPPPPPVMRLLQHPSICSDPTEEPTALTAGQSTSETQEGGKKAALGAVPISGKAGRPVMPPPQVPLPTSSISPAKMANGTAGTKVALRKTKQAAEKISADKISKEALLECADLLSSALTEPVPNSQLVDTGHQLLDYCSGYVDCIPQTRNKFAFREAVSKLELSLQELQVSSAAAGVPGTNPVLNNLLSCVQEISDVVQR
UniProt Q13233, sequence (whole entry, looked up): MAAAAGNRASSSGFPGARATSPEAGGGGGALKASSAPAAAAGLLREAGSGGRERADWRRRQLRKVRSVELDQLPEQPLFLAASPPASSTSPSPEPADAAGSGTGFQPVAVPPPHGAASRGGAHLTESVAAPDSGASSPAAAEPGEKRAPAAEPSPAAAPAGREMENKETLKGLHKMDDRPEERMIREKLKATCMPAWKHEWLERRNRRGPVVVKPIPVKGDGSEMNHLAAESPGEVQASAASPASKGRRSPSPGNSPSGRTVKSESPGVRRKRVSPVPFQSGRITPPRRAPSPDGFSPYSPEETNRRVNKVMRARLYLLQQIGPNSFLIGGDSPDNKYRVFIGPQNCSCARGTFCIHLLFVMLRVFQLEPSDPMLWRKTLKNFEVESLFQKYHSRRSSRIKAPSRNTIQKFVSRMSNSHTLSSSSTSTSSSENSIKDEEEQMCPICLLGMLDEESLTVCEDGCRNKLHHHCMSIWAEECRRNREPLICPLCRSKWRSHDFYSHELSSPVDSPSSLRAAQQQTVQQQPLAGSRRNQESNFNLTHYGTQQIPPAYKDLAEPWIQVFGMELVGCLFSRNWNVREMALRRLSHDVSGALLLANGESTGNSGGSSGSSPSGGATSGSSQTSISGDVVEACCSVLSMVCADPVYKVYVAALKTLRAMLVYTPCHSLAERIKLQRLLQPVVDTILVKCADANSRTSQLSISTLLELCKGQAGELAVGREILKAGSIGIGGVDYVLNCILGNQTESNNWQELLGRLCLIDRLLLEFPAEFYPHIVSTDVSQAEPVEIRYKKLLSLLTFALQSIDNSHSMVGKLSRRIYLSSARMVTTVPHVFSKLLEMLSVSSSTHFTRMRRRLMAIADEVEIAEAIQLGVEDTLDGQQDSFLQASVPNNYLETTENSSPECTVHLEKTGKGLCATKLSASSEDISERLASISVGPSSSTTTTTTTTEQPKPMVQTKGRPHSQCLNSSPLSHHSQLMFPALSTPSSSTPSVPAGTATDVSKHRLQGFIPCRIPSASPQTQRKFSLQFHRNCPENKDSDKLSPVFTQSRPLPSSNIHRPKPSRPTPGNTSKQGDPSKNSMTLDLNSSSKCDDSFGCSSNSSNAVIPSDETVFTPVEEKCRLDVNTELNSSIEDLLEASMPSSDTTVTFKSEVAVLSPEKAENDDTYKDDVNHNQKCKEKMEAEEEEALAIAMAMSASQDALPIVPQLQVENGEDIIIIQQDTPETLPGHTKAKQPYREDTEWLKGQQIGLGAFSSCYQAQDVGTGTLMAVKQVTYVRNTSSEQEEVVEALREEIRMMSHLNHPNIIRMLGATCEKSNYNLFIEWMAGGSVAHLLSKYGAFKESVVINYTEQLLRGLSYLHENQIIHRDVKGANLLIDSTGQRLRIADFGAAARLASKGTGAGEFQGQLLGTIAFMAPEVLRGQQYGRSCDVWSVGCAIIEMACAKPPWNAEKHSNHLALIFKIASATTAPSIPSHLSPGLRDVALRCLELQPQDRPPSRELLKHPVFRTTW
UniProt Q8IY84, sequence (whole entry, looked up): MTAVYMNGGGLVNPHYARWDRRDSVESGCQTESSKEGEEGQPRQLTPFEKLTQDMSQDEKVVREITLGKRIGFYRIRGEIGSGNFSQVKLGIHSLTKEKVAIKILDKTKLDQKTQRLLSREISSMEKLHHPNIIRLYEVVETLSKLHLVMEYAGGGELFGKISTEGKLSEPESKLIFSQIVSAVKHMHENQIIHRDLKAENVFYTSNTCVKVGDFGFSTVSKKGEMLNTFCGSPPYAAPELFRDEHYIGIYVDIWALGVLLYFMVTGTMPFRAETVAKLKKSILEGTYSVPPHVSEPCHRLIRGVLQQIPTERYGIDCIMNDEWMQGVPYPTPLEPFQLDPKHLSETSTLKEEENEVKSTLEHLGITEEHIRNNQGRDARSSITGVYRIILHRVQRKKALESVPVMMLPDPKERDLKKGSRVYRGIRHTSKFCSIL
UniProt Q15759, sequence (whole entry, looked up): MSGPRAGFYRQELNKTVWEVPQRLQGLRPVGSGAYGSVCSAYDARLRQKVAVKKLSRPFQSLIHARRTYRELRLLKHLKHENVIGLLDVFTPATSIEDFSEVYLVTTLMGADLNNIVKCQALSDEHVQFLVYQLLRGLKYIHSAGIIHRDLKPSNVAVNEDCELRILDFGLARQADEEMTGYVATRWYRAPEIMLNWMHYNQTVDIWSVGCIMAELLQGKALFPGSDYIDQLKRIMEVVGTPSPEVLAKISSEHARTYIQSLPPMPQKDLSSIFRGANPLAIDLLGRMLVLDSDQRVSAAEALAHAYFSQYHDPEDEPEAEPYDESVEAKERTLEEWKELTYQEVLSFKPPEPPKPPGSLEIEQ

Sample 1
Compound: CCCCN(CCCC)C(=O)CN1C[C@H](c2cc(OC)c3c(c2)OCO3)[C@@H](C(=O)O)[C@@H]1CC(C)(C)CCC
Effect on: cell-free assay
Technique: competition with immobilised ligand
Tested at: 1 µM
target | remaining binding [%]
MAPK11 (Homo sapiens, UniProt Q15759) | 94.2
PIKFYVE (Homo sapiens, UniProt Q9Y2I7) | 100
ABL2 (Homo sapiens, UniProt P42684) | 100
NIM1K (Homo sapiens, UniProt Q8IY84) | 100
IRAK1 (Homo sapiens, UniProt P51617) | 64.3

Sample 2
Target: Mitogen-activated protein kinase kinase kinase 11 (MAP3K11, Homo sapiens, UniProt Q16584)
UniProt Q16584, sequence (whole entry, looked up): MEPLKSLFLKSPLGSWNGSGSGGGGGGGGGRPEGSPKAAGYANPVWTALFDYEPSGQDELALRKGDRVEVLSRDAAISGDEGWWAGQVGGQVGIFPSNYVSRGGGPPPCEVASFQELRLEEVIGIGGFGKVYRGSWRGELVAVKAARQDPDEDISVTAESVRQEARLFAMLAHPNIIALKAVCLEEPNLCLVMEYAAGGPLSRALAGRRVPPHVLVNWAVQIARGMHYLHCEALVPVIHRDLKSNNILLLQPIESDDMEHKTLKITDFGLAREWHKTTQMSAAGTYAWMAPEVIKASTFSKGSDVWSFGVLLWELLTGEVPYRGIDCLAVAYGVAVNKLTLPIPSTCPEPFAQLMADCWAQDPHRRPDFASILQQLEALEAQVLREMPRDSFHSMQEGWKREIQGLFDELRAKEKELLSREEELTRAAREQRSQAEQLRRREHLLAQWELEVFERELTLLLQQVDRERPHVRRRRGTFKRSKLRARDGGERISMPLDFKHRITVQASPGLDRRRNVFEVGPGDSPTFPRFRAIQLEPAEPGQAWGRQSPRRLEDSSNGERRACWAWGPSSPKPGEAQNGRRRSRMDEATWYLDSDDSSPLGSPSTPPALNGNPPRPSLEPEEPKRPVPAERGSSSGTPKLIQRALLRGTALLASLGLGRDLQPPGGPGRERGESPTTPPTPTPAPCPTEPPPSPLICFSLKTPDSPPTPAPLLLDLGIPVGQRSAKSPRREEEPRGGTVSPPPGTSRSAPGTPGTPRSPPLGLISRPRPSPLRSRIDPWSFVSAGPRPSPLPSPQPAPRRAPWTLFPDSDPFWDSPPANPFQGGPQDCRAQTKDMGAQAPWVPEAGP
Effect on: enzyme activity
Mode: inhibitor
Tested at: 0.5 µM
Baseline: control
SMILES | remaining activity [%]
COc1ccc(OC)c2c(=S)c3ccccc3[nH]c12 | 107
O=C1NC(=O)C(c2cn(CCCn3ccnc3)c3ccccc23)=C1Nc1ccccc1 | 13.3
COc1cc2nccc(Oc3ccc(NC(=S)NC(=O)c4ccccc4C)cc3)c2cc1OC | 95.5
OCC(O)CCON=C1C(c2c(O)[nH]c3ccccc23)=Nc2ccccc21 (centres unmarked) | 10.5
Cc1nc(-c2ccccc2)c(-c2ccncc2)o1 | 98.7
O=c1c2ccccc2[nH]c(=S)n1CCN1CCC(=C(c2ccc(F)cc2)c2ccc(F)cc2)CC1 | 95.2
Cn1c2ccccc2c2c3c(c4c5ccccc5n(CCC#N)c4c21)CNC3=O | 2.19
CO[C@H]1C[C@@H]2CC[C@@H](C)[C@@](O)(O2)C(=O)C(=O)N2CCCC[C@H]2C(=O)O[C@H]([C@H](C)C[C@@H]2CC[C@@H](O)[C@H](OC)C2)CC(=O)[C@H](C)/C=C(\C)[C@@H](O)[C@@H](OC)C(=O)[C@H](C)C[C@H](C)/C=C/C=C/C=C/1C | 98.5
CC(C)[C@H](CO)Nc1nc(Nc2cc(N)cc(Cl)c2)c2ncn(C(C)C)c2n1 | 17.7
O=S(=O)(c1cccc2cnccc12)N1CCCNCC1 | 99.7
O=C(CCCc1ccc(-c2ccccc2F)cc1)Nc1ccc(O)cc1 | 101
COc1cc2ncnc(Nc3ccc(Oc4ccccc4)cc3)c2cc1OC | 68.5
CN(C)c1ccc(C=C2C(=O)Nc3ccccc32)cc1 | 88.4
Nc1ncnc2n[nH]c(Nc3ccc(F)cc3)c12 | 93.9

Sample 3
Cell line: A-375
Tested at: 100 µM
Time: 18 h
Structure (SMILES) | viability [%]
C[C@@H](c1ncncc1F)[C@](O)(Cn1cncn1)c1ccc(F)cc1F | 90.4
COC1=C(OC)C(=O)C(C/C=C(\C)CC/C=C(\C)CC/C=C(\C)CC/C=C(\C)CC/C=C(\C)CC/C=C(\C)CC/C=C(\C)CC/C=C(\C)CC/C=C(\C)CCC=C(C)C)=C(C)C1=O | 104
COc1c2occc2c(OC)c2c(=O)cc(C)oc12 | 95.8
CC(CN(C)C)CN1c2ccccc2Sc2ccccc21 (centres unmarked) | 8.64
CC(C)Cn1cnc2c(N)nc3ccccc3c21 | 90.7
O=c1ccc2ccccc2o1 | 91.7
CCCC(C(=O)OCCN(CC)CC)(c1ccccc1)c1ccccc1 | 9.14
CO[C@H]1C(=O)[C@]2(C)[C@@H](OC)C[C@H]3OC[C@@]3(OC(C)=O)[C@H]2[C@H](OC(=O)c2ccccc2)[C@]2(O)C[C@H](OC(=O)[C@H](O)[C@@H](NC(=O)OC(C)(C)C)c3ccccc3)C(C)=C1C2(C)C | 54.4

Sample 4
Structure (SMILES): C[C@H]1CC[C@H](n2c3cnccc3c3cnc(Nc4ccc5c(n4)CCN(C(=O)CO)C5)nc32)CC1
Effect on: cell-free assay
Tested at: 1 µM
target | remaining signal
LRRK2 (Homo sapiens, UniProt Q5S007, G2019S) | 32%
MATK (Homo sapiens, UniProt P42679) | 63%
MAP3K1 (Homo sapiens, UniProt Q13233) | 100%
MAP2K6 (Homo sapiens, UniProt P52564) | 22%
SNRK (Homo sapiens, UniProt Q9NRH2) | 100%

Some of these lines once more (sample 2):
SMILES | remaining activity [%]
Nc1ncnc2n[nH]c(Nc3ccc(F)cc3)c12 | 93.9
COc1ccc(OC)c2c(=S)c3ccccc3[nH]c12 | 107
Cn1c2ccccc2c2c3c(c4c5ccccc5n(CCC#N)c4c21)CNC3=O | 2.19
